Assay results gathered from unrelated publications.
Parts stem from different laboratories: compare values within a part only.

Series 1
Target: Histone acetyltransferase KAT6A, winged helix 2, GST fusion (KAT6A, Homo sapiens, UniProt Q92794, residues 85-181)
Method: protein binding microarray
Form: double-stranded DNA, one strand shown
Sample: in vitro
Concentration: not given
Setting: 8-mer, flanks averaged, mean of 2 arrays, mostly near background
Baseline: not given
Reading: higher = stronger binding
Endpoint: E-score
Target sequence (chain): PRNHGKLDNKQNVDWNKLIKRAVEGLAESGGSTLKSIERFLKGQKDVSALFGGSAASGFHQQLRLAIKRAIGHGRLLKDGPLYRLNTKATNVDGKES
GGTGCGTA: 0.0533
ATTAGCCA: 0.0232
CCGAGGAG: -0.0876
CCCCGTTC: 0.00777
CATAAGGC: 0.0241
GGTCTGGA: 0.0111
AGTGTACA: 0.0008
CAACGCCG: 0.171
CCCTGTGC: 0.0546
GCGAATAC: 0.0197
AGAGAATC: 0.0713
CGAAAACC: 0.11
GATCGTCA: -0.108
AGGGGTCG: -0.138
ATGAACCC: -0.0577
TATTTGAA: 0.0392
CCAGGAAA: 0.129
CATACGGA: 0.0576
GATTTTGA: 0.203
ACGGGACC: -0.0886
AATATGCC: -0.0561
AGCCAGTC: -0.155
ATCATACC: 0.0735
CGTATGAC: 0.0355
AACCGTAT: -0.178

Series 2
Target: RING finger protein unkempt homolog, zinc fingers 1-6, GST-SBP tag (UNK, Homo sapiens, UniProt Q9C0B0, residues 30-357)
Chain of UniProt Q9C0B0 (30-357, looked up): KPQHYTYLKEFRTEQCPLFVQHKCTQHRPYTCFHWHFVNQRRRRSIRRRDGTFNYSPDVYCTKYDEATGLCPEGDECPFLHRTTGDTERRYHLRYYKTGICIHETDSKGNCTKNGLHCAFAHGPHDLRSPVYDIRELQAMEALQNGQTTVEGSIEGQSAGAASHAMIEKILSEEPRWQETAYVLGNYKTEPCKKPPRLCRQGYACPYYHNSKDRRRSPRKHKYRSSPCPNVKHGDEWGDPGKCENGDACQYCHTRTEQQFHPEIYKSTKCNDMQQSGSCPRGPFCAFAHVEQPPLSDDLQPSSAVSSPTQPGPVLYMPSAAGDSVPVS
Method: RNA Bind-n-Seq
Form: RNA
Sample: in vitro
Concentration: not given
Setting: RNA with constant flanks, human and mouse sites, ends assumed
Baseline: input RNA pool
Reading: higher = stronger binding
Endpoint: bound/input enrichment
Constant ends, left off below: GGGAGUUCUACAGUCCGACGAUC … CAACAGAGGAUUGAGCAUCA
CAUUCCAAAUAUUCCCCUUUUCUCUACCCCCACCUCCCUUUUGCCCCAGCAACCCAGAACACGAGUCACGCCGCAAACUUUAGGAAGUACCAUUUUCAUCUUCUCCACUGUGCGCGUGCG: 1.35 ratio
AUUUGCUUUUAUUAUUAUUAUUAUUAUUAUUUUAGACACAGUCUUGCUCUGUCACCCAGGCUGGAGUGCGGUGGUAUUAUCUCGGCUCACUGCAACCUCCACCUCUCGGGUUCAAGCAAU: 55.2 ratio
CUCUCUUUUUUAAAUGGGCUGUUUUUACUGCAGGGGCUUUUCUUCCCUAGAAACCCAACUCUACGCAGAAAAAGUGAAAAGGAAAAAAAAAACACAAAAAAAACCAGAAAAAAAAGCUAU: 0.551 ratio
UAGGACACAUUCCCAGAAGAGCGGAAAGAUCAUUGACGUGGAACUACACACGAAGUGUAAUUAGUGGGGGAAAAAAUAUUUUUUAAACAAAGGAUAUAACCAUAUUUAGUUGUACAGUAA: 2.47 ratio
UCUCUCCUCCUAAGUUACGGGGCAGAUCCAACCCUGCUGAACUGUCACAAUAAAAGUGCUAUAGACCUGGCCCCCACGGCACAGCUGAAGGAAAGAUUAUCGUAUGAAUUUAAAGGCCAU: 0.165 ratio
CCUGAGAUAGUGCUGUGGUUAUAAUGUCUUUUACUAUUGUAUUAAUGGCUAGCCUGUUACAUUAGACUGGGGGGGGGGUACAGAGGUCUGCUGUUUUGUGAGGCUUUUUGUUUUUUUGGG: 0.668 ratio
UUGGCAGAAGGUGUCAUUUUAAGACGAGUAGGCGAAGCAAGGACUCAACACGGAGGUAGUCACGUUUCCCGGAAAUCCGAACACUUGAGUGUCAGACCACAGACUGCGUUGGAAGAAAAC: 0.185 ratio
CACUGGAGACUGAGCAAAAGGAAAUGUGAAACGAACAACAUGAUGGAAUAUGUCAUCCUCAUAGAAUUUUUACCAAAGACACCGAUUUUUCGACCAGAUUAGCAUUUGCUUUAUUUAUAG: 22.3 ratio
AUUGAACCUGUACAACCUCCUCCAUCUUCUGCACCUUUGGUUGCUGAUCAAAGACCCAUAACAUUUACAUCUUCAAAAAAUGAAGAACUACAAGGAAACGAUCCCAAAAUUCUUCCUUCA: 0.213 ratio
CUGAGCAUGAGAGAGCAGGAGGAAGAGCAUCCUGUCAGAAGCAGCGGCCCUCAGAUUUCUGUGAGCGAGUUCUCCUGCCACUGCUGCUACGACACCCUGGUUAACCCCACCACCUUGAAC: 0.254 ratio
GGAUUUUUUUCUGUGUAAAUCAUCAAGUAUAAGAAGAAACUAUGGGACUCUGAGCCUUGCUUUAGAGAAUUUACAGUGGACAAAUAGGUGUCAUCAAACCAGUUUUUAAUCAUUCUGACU: 4.31 ratio

Series 3
Target: RNA binding protein fox-1 homolog 2, RRM domain, GST-SBP tag (RBFOX2, Homo sapiens, UniProt O43251-10, residues 100-194)
Method: RNA Bind-n-Seq
Form: RNA
Sample: in vitro
Concentration: 365 nM
Setting: natural RNA segment, single round, ends assumed
Baseline: no-protein control
Reading: higher = stronger binding
Endpoint: RBNS enrichment (R)
Constant ends, left off below: GGGAGUUCUACAGUCCGACGAUC … UGGAAUUCUCGGGUGCCAA
Residues (chain): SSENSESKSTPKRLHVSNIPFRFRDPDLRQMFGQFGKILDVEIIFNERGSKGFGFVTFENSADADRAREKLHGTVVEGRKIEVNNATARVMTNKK
AAGAGAGCCAAAUUAGAGGCUCAUACUUUAGCUUGUGAAGAAGAUAAUGAAUUUUUUAAAGGGAACUUUCUAUGCAAUGUUCAGGAUAAAUGCAUACUGCUGGCCAAUCA: 1.87
GAGGCAGGGACCACAGAACUGUCCAGCCAACACGUCUGAACUGGAACUGUUCCACUUGAACCCGGGAGCUUUAAAGCUUUAUUUAUUUAUAGCUUCUUAUUAAAAAUUUA: 0.592
GAUGGUAGAGAGAGUUGCUGGCUAUUUAAAAAGCUCUUUCAUCUUUUAAUUCACCUCUUCUUUUCACCUCUUUAACCACUCCUCAGGAACAGAACACUUCUAGGACUGGG: 0.485
GCCCUAGGCGUGGCCUGCGGUCUGGCAGAUCCGUGCUACAGAAUUCGCCUGGUUCCUCUCUAUUUUAAUUUUUCUAACCUAGAGCUUAAUUUCAAUAACUUUUUCAACAG: 1.26
UCCCACCGUCCACUCCCCGUCCCCGGGGGCCUGCCCUCAGUCUAAGCUUUGGAACACUCUCACCUCACCUGCCGCCCAAGUCAAAUCUAUUUAUUUUUUUACUGAACCCA: 0.913
UUUUAAAUCCUUUAAAAACACUCACCAUAUAAACUUGCAUUUGAGCUUGUGUGUUCUUUUGUUAAUGUGUAGAGUUCUCCUUUCUCGAAAUUGCCAGUGUGUACUUGGCU: 1.5
ACAUUGAUCUAGAUCUGCCUUUAUCCACUCGAAUUAUAAACAGCUCGGCUUGUCCUUGUCCCAUGUGUUUGUAGACACACAUGCAUACUGUCCAAAGAUUAGGGUUGGUG: 0.268
CCAAGGCCUGACCUAGGCUGCUAUCCUAAUAUUGCAGGAGGGGCCUCUCUUCCAAGCCCCACCCUAAGGGUUAGCCCUUGGCCAAAUCUUUUGCCGUCUAGGCCCAGCCA: 0.268
GUGACAGAGAGAACCUCAAAAAUGUAGCUGGAAAGGACUUUAAAACUCAUCCAAUGCAGAGUCUCGCUCCUAGCUGCCUACCCGAGAUCCCUUGCUUCAACCUCCCCAGG: 0.362
UCUUUGGAGAAUGGGGAGGCCUCUUGGAGACACAGAGGGUUUCACCUUGGAUGACCUCUAGAGAAAUUGCCCAAGAAGCCCACCUUCUGGUCCCAACCUGCAGACCCCAC: 0.422
GUUGCCAGGCGCAGAGGGGAGGCCAGCCCUGCCCUCAGGACCUGCCUGACCUGCCAGUGAUGCCAAGAGGGGGAUCAAGCACUGGCCUCUGCCCCUCCUCCUUCCAGCAC: 0.285
GGUCGUUGACUGCUUCACACUUACCUUGCUGAACAUGAACUUUCAGACCUAGAAGUCACUUUUAUGAUUUAUGAUAUAUGAUGUGUUUUUUACUAUUGUAUGUCAUUUAA: 0.28

Series 4
Target: Fragile X messenger ribonucleoprotein 1, C-terminal low-complexity region (Fmr1, Mus musculus, UniProt P35922)
Method: RNA Bind-n-Seq
Form: RNA
Sample: in vitro
Concentration: 200 nM
Setting: whole 134-nt RNA, ends assumed
With: 150 mM LiCl
Baseline: input library
Reading: higher = stronger binding
Endpoint: log2 enrichment
Each molecule: 7-deaza-guanosine replaces G
Constant ends, left off below: GGGAGUUCUACAGUCCGACGAUC … UGGAAUUCUCGGGUGUCAAGG
AAGUCCUGUGCUACACAUCGUAUGUACCGAAUCGGGUGGGUUUGGGAAAAAAAGGGAAAGUAUUAUGUUACGCCGUUCGGAUCUGCACUU: -1.31
CACAGACAACACGCACCCACACAGACACAGAGGGAAGGGGUUGGGAUGGGGACAGGGUGCACAGCAGGGCGGGGUAGGACCCCAGCGCCU: -1.02
AAGUCCUGUGCUACACAUCGUAUGUACCGAAUCGGCCCCGGGGCCCCGGGCCCCGGAAAGUAUUAUGUUACGCCGUUCGGAUCUGCACUU: -2.47
CAAGUCCUGUGCUACACAUCGUAUGUACCGAAUCGGGGUUUGGUUUGGUUUGGGGAAAGUAUUAUGUUACGCCGUUCGGAUCUGCACUUC: -0.866
CCUCAAGUCCUGUGCUACACAUCGUAUGUACCGAAUCGGGAGGGGAGGGAGGAAAGUAUUAUGUUACGCCGUUCGGAUCUGCACUUCCAG: -0.841
UCCAGCCACUCACCGGCGAUCCAGGUCCAGAACCCCCCUGAUAAGCCGACGUAGGUCCAGAUCUCGAACUUCACCAGUCAGCCGGAGACG: 1.24
CCUGUGCUACACAUCGUAUGUACCGAAUCGGGGAAAAAGGGGUUUGGGGAAAAAAAGGGGAAAGUAUUAUGUUACGCCGUUCGGAUCUGC: -1.46
UCCUGUGCUACACAUCGUAUGUACCGAAUCGGGUUUUUUGGGGUUUUUUGGGUUUUUUGGAAAGUAUUAUGUUACGCCGUUCGGAUCUGC: 0.226
UAACUUUAGAGGAGGAUCAGAUGGAUAUGGCAGUGGACGUGGAUUUGGGGAUGGCUAUAAUGGGUAUGGAGGAGGACCUGGAGGUGGCAA: 0.435
UCAAGUCCUGUGCUACACAUCGUAUGUACCGAAUCGGGUGGGAAAGGGAAAGGGAAAGUAUUAUGUUACGCCGUUCGGAUCUGCACUUCC: -1.08
AGUCCUGUGCUACACAUCGUAUGUACCGAAUCGGGUUUUUUUGGGAAAAAGGGUGGGAAAGUAUUAUGUUACGCCGUUCGGAUCUGCACU: -2.54
